# Experimental data collected from several papers.
# Each line is one published result; not all experiments were run side by side. ± gives the spread as reported.
# GBA2: Beta-glucosidase (GBA2, Homo sapiens, UniProt Q9HCG7)
# Sequence of UniProt Q9HCG7 (whole entry, looked up): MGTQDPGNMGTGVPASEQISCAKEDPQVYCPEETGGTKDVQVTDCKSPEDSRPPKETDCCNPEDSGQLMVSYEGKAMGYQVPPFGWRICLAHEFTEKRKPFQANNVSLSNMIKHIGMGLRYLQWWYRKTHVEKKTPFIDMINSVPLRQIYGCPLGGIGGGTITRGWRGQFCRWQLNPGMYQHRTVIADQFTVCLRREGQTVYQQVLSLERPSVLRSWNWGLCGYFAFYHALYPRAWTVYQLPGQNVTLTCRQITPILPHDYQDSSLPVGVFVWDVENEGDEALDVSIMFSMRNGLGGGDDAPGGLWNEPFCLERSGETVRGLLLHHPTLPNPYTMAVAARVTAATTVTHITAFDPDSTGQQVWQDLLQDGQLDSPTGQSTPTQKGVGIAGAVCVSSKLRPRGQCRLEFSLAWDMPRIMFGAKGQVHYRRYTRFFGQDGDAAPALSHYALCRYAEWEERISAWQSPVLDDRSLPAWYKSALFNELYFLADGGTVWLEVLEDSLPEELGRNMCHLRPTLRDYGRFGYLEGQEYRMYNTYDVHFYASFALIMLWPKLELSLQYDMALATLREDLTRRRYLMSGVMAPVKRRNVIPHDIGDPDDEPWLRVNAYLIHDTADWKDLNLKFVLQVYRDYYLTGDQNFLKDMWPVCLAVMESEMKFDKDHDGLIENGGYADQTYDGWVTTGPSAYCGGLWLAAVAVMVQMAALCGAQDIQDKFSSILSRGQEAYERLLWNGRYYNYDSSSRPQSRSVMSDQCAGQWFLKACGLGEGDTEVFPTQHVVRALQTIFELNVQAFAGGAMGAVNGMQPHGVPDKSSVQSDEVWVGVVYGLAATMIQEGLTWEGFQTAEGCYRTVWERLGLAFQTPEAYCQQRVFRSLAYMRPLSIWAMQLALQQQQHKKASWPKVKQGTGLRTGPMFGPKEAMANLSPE
# Sequence of UniProt P10632 (whole entry, looked up): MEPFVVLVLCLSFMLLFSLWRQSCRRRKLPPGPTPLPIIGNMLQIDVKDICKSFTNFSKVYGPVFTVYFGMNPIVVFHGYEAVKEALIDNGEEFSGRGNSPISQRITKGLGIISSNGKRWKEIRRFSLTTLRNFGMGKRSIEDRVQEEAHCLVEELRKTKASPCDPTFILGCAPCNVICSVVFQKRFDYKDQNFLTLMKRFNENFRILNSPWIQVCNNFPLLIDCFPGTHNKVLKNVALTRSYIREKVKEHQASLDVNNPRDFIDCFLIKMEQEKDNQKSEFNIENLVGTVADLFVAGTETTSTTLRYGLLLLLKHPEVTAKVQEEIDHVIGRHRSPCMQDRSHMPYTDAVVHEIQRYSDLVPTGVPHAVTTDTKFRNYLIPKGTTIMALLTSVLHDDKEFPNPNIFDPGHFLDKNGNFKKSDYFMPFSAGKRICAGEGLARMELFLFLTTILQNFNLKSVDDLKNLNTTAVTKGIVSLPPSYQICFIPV
# Sequence of UniProt O75469 (whole entry, looked up): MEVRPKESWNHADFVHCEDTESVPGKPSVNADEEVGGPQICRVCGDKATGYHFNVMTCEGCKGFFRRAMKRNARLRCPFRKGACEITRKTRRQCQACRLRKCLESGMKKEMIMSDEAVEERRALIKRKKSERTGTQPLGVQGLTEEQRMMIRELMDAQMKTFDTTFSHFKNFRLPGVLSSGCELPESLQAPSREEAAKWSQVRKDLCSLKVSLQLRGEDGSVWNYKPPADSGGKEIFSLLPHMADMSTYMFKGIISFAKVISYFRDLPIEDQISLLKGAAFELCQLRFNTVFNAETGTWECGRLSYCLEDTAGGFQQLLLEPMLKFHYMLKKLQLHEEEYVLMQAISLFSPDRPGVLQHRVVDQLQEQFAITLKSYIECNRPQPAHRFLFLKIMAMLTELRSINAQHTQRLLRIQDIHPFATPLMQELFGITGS
SMILES,target or system,assay,system,conditions,how to read,quantity,result
CC(C)Cc1ccc(C(C)C(=O)N[C@@H](CCCCNC(=O)CCOCCOCCOCCOCCOCCOCCNC(=O)CN2CCN(CC(=O)[O-])CCN(CC(=O)[O-])CCN(CC(=O)[O-])CC2)C(=O)Nc2cccc3c(C(=O)NCC(=O)N4CC(F)(F)C[C@H]4C#N)ccnc23)cc1.[177Lu+3] (some centres unmarked),U-87 MG tumour model,,"host not given, bone","1 h, tumour-bearing",,tracer uptake,10.2 %ID/g
CC(C)OCCOCc1ccc(OCC(O)CN(N=O)C(C)C)cc1 (centres unmarked),Salmonella typhimurium,Ames test,TA100,"500 µg/plate, without metabolic activation",reference: solvent control,revertant fold increase,1 fold
CNC(=O)C1CCCN(C(=O)C2CC3CCC2N3C(=O)[C@@H]2C[C@@H](O)CN2C(=O)NCc2cccc(Cl)c2F)C1 (mixture of isomers),CYP3A4 (human),"inhibitor, time-dependent inhibition",,"0.617 µM, preincubated without NADPH, together with: testosterone substrate",,6β-hydroxytestosterone formation,173 ng/mL
O=c1c2sccc2n(CC2COc3ccccc3O2)c(=O)n1O (centres unmarked),MDCK,,Caco-2,10 µM,,efflux ratio,2.8
CN1CCC[C@]1(C)/C=C/S(=O)(=O)NC(=O)Nc1c2c(cc3c1CCC3)CCC2,,"measured: glucose in urine, not related",human,"oral, 100 mg twice daily, 14 days, multiple ascending dose",,subjects with adverse event,0%
O=C1NC2(CC2)COc2ncc(F)cc2[C@H]2COCCN2c2ccn3ncc1c3n2,Salmonella typhimurium,Ames test,TA98,"5000 µg/plate, 48 h, together with: without S9",,revertant colonies,13 ± 3 revertants/plate
CCN(CC)CC#CCNc1ccnc2cc(Cl)ccc12,Salmonella typhimurium,mini-Ames test,TA97a,"500.0 µg/well, without S9",,revertants,0 revertants/well
N#Cc1ccnc(N2C(=O)CC[C@H]2C(=O)N(c2cc(F)cc(F)c2)[C@H](C(=O)NC2CC(F)(F)C2)c2ccccc2Cl)c1 (stereo in doubt),"NR1I2 (Homo sapiens, UniProt O75469)","reporter gene, agonist",,1 µM,reference: rifampicin,activation,69%
C=C(NC(=O)c1csc(-c2nc3c(cc2O)-c2nc(cs2)C(=O)NC(C(C)O)C(=O)NC(=C(C)OC)c2nc(cs2)C(=O)NC2c4nc(cs4)C(=O)NC(COC(=O)c4c5c6c(cccc6n4O)COC(=O)C(OC4CC(C)(O)C(N(C)C)C(C)O4)C2OC5)c2nc-3cs2)n1)C(N)=O (centres unmarked),,,"Sprague-Dawley rat, both sexes, plasma","intravenous infusion, 18 mg/kg single dose",,Cmax,8050 ± 2670 ng/mL
N#C[C@@H]1CC(F)(F)CN1C(=O)CNC(=O)c1ccnc2c(NC(=O)[C@H](CCCCNC(=O)CCOCCOCCOCCOCCOCCOCCNC(=O)CN3CCN(CC(=O)[O-])CCN(CC(=O)[O-])CCN(CC(=O)[O-])CC3)NC(=O)CCCc3ccc(I)cc3)cccc12.[177Lu+3],U-87 MG tumour model,,"host not given, stomach","72 h, tumour-bearing",,tracer uptake,0.2 %ID/g
CC[C@H](C)[C@H](NC(=O)C[C@H](NC(=O)CN1CCN2CCN(CC1)CC(=O)[O][Al]([18F])[O]C(=O)C2)C(=O)O)C(=O)N[C@H]1CCc2cccc3c2N(C1=O)[C@H](C(=O)NCc1cn[nH]n1)C3,MC-38 tumour model,,"host not given, tumour","30 min, tumour-bearing",,tracer uptake,0.86 %ID/g
N#C[C@@H]1CC(F)(F)CN1C(=O)CNC(=O)c1ccnc2c(NC(=O)[C@@H](N)CCCCNC(=O)CCOCCOCCOCCOCCOCCOCCNC(=O)CN3CCN(CC(=O)[O-])CCN(CC(=O)[O-])CCN(CC(=O)[O-])CC3)cccc12.[177Lu+3],U-87 MG tumour model,,"host not given, tumour","48 h, tumour-bearing",,tracer uptake,0.36 %ID/g
OC[C@@H]1[C@@H](O)[C@H](O)[C@@H](O)CN1CCCCCOCc1ccc(-c2ccc(C(F)(F)F)cc2)cc1,GBA2,"inhibitor, 4MU-β-D-glucopyranoside",HEK293T homogenates overexpressing GBA2,,reference: GCS IC50 over GBA2 IC50,selectivity ratio,25
CC[C@H](C)[C@H](NC(=O)[C@H](Cc1ccccc1)NC(=O)[C@H](CCC(=O)O)NC(=O)[C@H](CCCCN)NC(=O)[C@H](C)NC(=O)[C@H](C)NC(=O)[C@H](CCC(N)=O)NC(=O)CNC(=O)[C@H](CCC(=O)O)NC(=O)[C@H](CC(C)C)NC(=O)[C@H](Cc1ccc(O)cc1)NC(=O)[C@H](CO)NC(=O)[C@H](CO)NC(=O)[C@@H](NC(=O)[C@H](CC(=O)O)NC(=O)[C@H](CO)NC(=O)[C@@H](NC(=O)[C@H](Cc1ccccc1)NC(=O)[C@@H](NC(=O)CNC(=O)[C@H](CCC(=O)O)NC(=O)[C@H](C)NC(=O)[C@@H](N)Cc1c[nH]cn1)[C@@H](C)O)[C@@H](C)O)C(C)C)C(=O)N[C@@H](C)C(=O)N[C@@H](Cc1c[nH]c2ccccc12)C(=O)N[C@@H](CC(C)C)C(=O)N[C@H](C(=O)N[C@@H](CCCCN)C(=O)NCC(=O)N[C@@H](CCCN=C(N)N)C(=O)NCC(=O)O)C(C)C,DPP-4 (recombinant),"substrate, LC-MS",,"500 µM, 12 h",,remaining peptide,~73%
CC[C@H](C)C(=O)O[C@H]1C[C@@H](C)C=C2C=C[C@H](C)[C@H](CC[C@@H]3CC=CC(=O)O3)[C@H]21,T84,MTT,,"50 µM, 24 h",,viability reduction,~30%
O=C1C2CC3CC1CC(C(=O)N1CCN(c4ccc([N+](=O)[O-])c5ncccc45)CC1)(C3)C2,Salmonella typhimurium,Ames test,TA1535,"0.31 µg/well, with S9",,mean revertant colonies,3 colonies/well
COC1CN([C@H]2CC[C@H]([C@@]3(C)Oc4c(Cl)cc(C(=O)NCc5c(SC)cc(C)[nH]c5=O)c(C)c4O3)CC2)C1,,"RNA-seq, measured: ACP3","human, whole blood","dose not given, 24 h",reference: pretreatment baseline,log2 fold change,1.28
OC[C@@H]1[C@@H](O)[C@H](O)[C@@H](O)CN1CCCCCOCC12CC3CC(C1)CC(COCCCCCN1C[C@H](O)[C@@H](O)[C@H](O)[C@H]1CO)(C3)C2,GBA2,"inhibitor, 4MU-β-D-glucopyranoside",HEK293T homogenates overexpressing GBA2,,reference: GBA1 IC50 over GBA2 IC50,selectivity ratio,34
COCC1CN(C2CCN(c3cc(OC)c(Nc4ncc(Br)c(Nc5ccc6c(c5P(C)(C)=O)OCCO6)n4)cc3C)CC2)C1,,,"EGFR-mutant NSCLC patients, plasma","oral, 90 mg single dose, median",,Tmax,2 h
CCCC[C@H](NC(=O)CCCCCCCNC(=O)CN1CCN(CC(=O)O)CCN(CC(=O)O)CC1)C(=O)N[C@H]1CC(=O)NCCCC[C@@H](C(N)=O)NC(=O)[C@H](Cc2c[nH]c3ccccc23)NC(=O)[C@H](CCCNC(=N)N)NC(=O)[C@@H](Cc2ccccc2)NC(=O)[C@H](Cc2c[nH]cn2)NC1=O [technetium-99m labelled],,,"C57 mouse, pancreas","intravenous, 0.037 MBq, 24 h",,tissue uptake,0.04 ± 0.03 %ID/g
N#C[C@@H]1CC(F)(F)CN1C(=O)CNC(=O)c1ccnc2c(NC(=O)CCOCCOCCOCCOCCOCCOCCNC(=O)[C@H](CCCCNC(=O)CN3CCN(CC(=O)[O-])CCN(CC(=O)[O-])CCN(CC(=O)[O-])CC3)NC(=O)CCCc3ccc(I)cc3)cccc12.[177Lu+3],U-87 MG tumour model,,"host not given, pancreas","48 h, tumour-bearing",,tracer uptake,0.39 %ID/g
NC(=O)c1ccc(C(=O)NOCc2ccc(Sc3cccc(Cl)c3)c(C(F)(F)F)c2)cc1,"Cytochrome P450 2C8 (CYP2C8, Homo sapiens, UniProt P10632)",,pooled human liver microsomes,5 min,,IC50,> 30 µM
COc1cccc(OC)c1-c1cc(C(=O)NC2(C(=O)O)C3CC4CC(C3)CC2C4)nn1-c1ccc(C(=O)N(C)CCCN(C)C(=O)[C@H](CCCCNC(=O)[C@H](CC(C)C)NC(=O)C2OC2C(=O)O)NC(=O)CN2CCN(CC(=O)[O-])CCN(CC(=O)[O-])CCN(CC(=O)[O-])CC2)cc1C(C)C.[177Lu+3] (mixture of isomers),HT-29 tumour model,,"host not given, blood","24 h, tumour-bearing",,tracer uptake,0.13 %ID/g

# Excerpt of the above:
SMILES,target or system,assay,system,conditions,how to read,quantity,result
CC[C@H](C)C(=O)O[C@H]1C[C@@H](C)C=C2C=C[C@H](C)[C@H](CC[C@@H]3CC=CC(=O)O3)[C@H]21,T84,MTT,,"50 µM, 24 h",,viability reduction,~30%
O=c1c2sccc2n(CC2COc3ccccc3O2)c(=O)n1O (centres unmarked),MDCK,,Caco-2,10 µM,,efflux ratio,2.8
